Results gathered from unrelated publications.
Each numbered part is a random draw from the data of one study; scales do not carry over between parts.
Chain of UniProt P21709 (whole entry, looked up): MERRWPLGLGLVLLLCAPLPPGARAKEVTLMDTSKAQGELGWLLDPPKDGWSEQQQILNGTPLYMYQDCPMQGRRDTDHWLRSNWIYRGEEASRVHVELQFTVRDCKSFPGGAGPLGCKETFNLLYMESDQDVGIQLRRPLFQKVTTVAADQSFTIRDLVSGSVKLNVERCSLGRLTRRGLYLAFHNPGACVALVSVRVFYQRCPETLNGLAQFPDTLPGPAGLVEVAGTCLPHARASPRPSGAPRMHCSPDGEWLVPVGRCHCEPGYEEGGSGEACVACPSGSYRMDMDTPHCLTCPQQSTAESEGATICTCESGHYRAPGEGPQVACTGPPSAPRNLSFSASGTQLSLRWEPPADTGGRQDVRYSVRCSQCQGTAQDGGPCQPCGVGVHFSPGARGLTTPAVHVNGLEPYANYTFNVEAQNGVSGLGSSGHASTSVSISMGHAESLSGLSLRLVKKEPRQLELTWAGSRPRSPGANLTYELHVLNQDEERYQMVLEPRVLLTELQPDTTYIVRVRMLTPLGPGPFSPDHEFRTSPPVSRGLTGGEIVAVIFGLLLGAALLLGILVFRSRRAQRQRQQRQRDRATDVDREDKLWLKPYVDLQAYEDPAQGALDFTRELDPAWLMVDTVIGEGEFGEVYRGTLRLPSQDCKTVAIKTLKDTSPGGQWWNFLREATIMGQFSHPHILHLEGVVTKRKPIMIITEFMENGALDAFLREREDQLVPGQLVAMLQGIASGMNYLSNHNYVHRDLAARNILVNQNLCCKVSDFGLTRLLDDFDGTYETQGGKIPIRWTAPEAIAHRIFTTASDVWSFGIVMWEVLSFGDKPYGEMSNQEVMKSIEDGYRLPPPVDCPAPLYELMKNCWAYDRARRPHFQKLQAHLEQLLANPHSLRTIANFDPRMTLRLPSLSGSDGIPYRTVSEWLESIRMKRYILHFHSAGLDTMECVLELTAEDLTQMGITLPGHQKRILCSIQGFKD
Chain of UniProt Q86Y07 (whole entry, looked up): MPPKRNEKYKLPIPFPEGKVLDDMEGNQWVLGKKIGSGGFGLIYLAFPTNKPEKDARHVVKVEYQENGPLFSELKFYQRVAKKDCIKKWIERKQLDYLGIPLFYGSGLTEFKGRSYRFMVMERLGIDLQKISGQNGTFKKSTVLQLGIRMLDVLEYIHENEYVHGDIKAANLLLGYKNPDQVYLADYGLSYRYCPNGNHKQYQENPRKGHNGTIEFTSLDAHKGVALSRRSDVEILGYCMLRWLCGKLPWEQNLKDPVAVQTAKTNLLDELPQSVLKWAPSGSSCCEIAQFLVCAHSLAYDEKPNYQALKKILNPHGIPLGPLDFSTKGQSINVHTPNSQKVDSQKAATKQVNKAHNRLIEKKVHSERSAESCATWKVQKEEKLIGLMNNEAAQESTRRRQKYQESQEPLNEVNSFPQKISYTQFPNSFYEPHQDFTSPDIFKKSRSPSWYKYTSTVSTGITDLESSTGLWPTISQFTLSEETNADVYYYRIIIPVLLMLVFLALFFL
Chain of UniProt Q9Y616 (whole entry, looked up): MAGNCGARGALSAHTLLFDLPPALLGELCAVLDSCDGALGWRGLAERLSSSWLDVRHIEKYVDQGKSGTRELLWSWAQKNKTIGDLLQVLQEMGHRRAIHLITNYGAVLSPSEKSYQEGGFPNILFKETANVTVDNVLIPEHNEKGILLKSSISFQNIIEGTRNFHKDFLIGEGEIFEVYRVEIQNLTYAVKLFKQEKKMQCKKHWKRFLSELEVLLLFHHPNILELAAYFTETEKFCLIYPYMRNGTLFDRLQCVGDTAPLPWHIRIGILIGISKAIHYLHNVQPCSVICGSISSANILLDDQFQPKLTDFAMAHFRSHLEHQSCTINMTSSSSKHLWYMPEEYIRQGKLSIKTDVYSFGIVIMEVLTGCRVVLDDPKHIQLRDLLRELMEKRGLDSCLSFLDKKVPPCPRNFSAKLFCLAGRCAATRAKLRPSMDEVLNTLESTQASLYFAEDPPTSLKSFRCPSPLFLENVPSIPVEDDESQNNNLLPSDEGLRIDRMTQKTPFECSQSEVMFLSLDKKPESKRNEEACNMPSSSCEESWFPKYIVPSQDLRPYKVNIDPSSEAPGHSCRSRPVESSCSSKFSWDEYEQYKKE
Chain of UniProt Q96RR4 (whole entry, looked up): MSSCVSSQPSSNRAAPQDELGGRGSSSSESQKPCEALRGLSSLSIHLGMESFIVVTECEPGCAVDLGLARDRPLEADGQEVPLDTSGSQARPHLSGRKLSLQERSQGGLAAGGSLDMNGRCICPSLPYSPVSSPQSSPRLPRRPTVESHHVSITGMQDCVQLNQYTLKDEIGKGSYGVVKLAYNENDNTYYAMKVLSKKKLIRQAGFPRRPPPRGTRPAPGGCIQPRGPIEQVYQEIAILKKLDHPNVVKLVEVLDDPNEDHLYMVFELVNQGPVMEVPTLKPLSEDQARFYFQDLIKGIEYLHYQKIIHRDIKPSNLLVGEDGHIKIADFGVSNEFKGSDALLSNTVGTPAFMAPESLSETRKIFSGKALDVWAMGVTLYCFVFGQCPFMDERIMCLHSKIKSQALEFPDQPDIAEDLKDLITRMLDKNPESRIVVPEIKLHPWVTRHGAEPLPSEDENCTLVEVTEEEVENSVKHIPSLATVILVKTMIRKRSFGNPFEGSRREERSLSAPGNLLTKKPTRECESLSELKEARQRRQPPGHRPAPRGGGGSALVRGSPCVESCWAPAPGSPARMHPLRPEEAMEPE
Chain of UniProt Q9HBY8 (whole entry, looked up): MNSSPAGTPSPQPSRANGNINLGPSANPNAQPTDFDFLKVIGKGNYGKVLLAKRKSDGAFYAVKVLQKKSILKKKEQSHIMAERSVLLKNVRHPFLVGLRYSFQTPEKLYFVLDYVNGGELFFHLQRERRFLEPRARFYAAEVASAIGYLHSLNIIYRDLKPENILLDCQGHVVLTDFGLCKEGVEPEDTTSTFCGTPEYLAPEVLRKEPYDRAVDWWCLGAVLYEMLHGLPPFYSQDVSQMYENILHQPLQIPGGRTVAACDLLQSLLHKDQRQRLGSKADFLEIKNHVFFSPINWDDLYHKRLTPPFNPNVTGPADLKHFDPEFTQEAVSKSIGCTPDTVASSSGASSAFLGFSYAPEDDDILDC
Chain of UniProt P51957 (whole entry, looked up): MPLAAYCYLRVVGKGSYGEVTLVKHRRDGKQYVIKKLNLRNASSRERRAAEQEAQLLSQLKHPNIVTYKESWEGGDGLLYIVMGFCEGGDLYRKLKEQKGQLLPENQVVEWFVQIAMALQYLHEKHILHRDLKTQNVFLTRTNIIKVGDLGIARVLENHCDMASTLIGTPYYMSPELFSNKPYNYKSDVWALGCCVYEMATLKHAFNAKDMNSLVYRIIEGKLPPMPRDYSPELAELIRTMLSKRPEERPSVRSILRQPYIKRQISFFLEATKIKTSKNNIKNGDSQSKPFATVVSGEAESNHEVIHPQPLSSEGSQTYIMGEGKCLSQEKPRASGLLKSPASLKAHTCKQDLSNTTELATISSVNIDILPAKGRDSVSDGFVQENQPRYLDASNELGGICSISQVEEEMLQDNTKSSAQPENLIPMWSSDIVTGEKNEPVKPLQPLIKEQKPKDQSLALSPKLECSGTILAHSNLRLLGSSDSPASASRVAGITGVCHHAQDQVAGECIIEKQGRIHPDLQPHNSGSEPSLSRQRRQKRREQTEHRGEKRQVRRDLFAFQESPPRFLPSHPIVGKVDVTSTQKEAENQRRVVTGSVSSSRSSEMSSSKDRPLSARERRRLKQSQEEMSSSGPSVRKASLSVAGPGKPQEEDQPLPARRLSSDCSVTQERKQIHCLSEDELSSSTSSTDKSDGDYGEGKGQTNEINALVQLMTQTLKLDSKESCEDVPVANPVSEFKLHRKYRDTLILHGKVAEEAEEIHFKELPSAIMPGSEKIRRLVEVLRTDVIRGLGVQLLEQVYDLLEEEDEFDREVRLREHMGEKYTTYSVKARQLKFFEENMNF
Chain of UniProt O94921 (whole entry, looked up): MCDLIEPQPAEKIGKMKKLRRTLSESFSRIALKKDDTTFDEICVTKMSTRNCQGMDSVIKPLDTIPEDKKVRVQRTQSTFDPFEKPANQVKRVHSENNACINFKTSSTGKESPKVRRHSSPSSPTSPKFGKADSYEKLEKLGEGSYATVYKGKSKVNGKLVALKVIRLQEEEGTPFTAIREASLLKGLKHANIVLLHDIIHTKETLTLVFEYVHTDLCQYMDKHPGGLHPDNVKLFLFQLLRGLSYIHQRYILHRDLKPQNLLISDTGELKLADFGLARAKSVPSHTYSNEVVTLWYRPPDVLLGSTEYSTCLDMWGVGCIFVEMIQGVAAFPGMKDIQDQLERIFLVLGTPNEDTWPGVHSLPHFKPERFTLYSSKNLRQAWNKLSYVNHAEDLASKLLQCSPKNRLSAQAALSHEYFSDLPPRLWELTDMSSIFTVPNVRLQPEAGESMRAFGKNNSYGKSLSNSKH
Chain of UniProt P49840 (whole entry, looked up): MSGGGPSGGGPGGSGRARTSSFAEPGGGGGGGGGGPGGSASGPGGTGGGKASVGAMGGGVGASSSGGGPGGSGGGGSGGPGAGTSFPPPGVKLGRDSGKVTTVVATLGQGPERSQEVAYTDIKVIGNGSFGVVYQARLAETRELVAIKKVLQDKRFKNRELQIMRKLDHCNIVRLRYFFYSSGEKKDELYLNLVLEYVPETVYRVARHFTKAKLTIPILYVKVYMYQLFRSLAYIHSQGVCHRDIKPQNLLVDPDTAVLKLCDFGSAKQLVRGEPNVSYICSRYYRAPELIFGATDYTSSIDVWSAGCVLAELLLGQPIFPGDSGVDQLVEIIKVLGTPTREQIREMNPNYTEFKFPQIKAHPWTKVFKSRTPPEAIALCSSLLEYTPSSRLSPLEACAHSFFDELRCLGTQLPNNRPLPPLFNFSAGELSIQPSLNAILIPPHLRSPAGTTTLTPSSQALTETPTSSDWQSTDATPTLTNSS

Series 1 — technique: PRP chromatography; notes: linear fit, 1 mL
Compound	logD 1,9-decadiene/water [log units]
CC(C)C[C@@H]1NC(=O)[C@H](Cc2cscn2)NC(=O)[C@H](CCC(=O)N2CCCC2)NC(=O)[C@H](CC(C)C)NC(=O)[C@@H](Cc2cscn2)NC(=O)[C@H](CC(C)C)NC(=O)[C@@H](CC(C)C)NC1=O	-0.922
CC(C)C[C@@H]1NC(=O)[C@H](CC(C)C)NC(=O)[C@H](CC(C)C)NC(=O)[C@@H](C)NC(=O)[C@H](C(C)C)NC(=O)[C@H](C)NC(=O)[C@H](C)NC1=O	-2.32
CC(C)C[C@@H]1NC(=O)[C@H](C(C)C)NC(=O)[C@H](C)NC(=O)[C@@H](CC(C)C)NC(=O)[C@H](C(C)C)NC(=O)[C@H](CC(C)C)NC(=O)[C@@H](CC(C)C)NC1=O	0.0587
CC(C)C[C@@H]1NC(=O)[C@H](Cc2cscn2)NC(=O)[C@@H](CC(C)C)NC(=O)[C@H](C(C)C)NC(=O)[C@H](CC(C)C)NC(=O)[C@@H](CC(C)C)NC(=O)[C@H](CC(C)C)NC1=O	1.09
CC(C)C[C@@H]1NC(=O)[C@H](CC(C)C)NC(=O)[C@H](CC(C)C)NC(=O)[C@H](CC(C)C)NC(=O)[C@@H](CCC(=O)N2CCCC2)NC(=O)[C@H](Cc2cscn2)NC(=O)[C@H](C)NC1=O	-1.43
CC(C)C[C@@H]1NC(=O)[C@H](C)NC(=O)[C@H](Cc2cscn2)NC(=O)[C@H](CC(C)C)NC(=O)[C@@H](CCC(=O)N2CCCC2)NC(=O)[C@H](CC(C)C)NC(=O)[C@@H](CC(C)C)NC1=O	-1.32
CC(C)C[C@@H]1NC(=O)[C@H](C)NC(=O)[C@@H](CC(C)C)NC(=O)[C@H](CC(C)C)NC(=O)[C@@H](Cc2cscn2)NC(=O)[C@H](CC(C)C)NC(=O)[C@@H](CC(C)C)NC1=O	-4.87
CC(C)C[C@@H]1NC(=O)[C@H](Cc2cscn2)NC(=O)[C@H](C)NC(=O)[C@H](CCC(=O)N2CCCC2)NC(=O)[C@@H](CCC(=O)N2CCCC2)NC(=O)[C@H](CC(C)C)NC(=O)[C@@H](CC(C)C)NC1=O	-2.52

Series 2 — tested at: 1 µM
SMILES: NS(=O)(=O)c1cc(NC(=O)C2(c3ccccc3Cl)CC2)ccc1Oc1cccc(Cl)c1
target	test	remaining binding
Tyrosine-protein kinase ABL2 (ABL2, Homo sapiens, UniProt P42684)	cell-free assay, competition with immobilised ligand	80%
Interferon-induced, double-stranded RNA-activated protein kinase (EIF2AK2, Homo sapiens, UniProt P19525)	cell-free assay, competition with immobilised ligand	100%
Vascular endothelial growth factor receptor 2 (KDR, Homo sapiens, UniProt P35968)	cell-free assay, competition with immobilised ligand	74%
Homeodomain-interacting protein kinase 3 (HIPK3, Homo sapiens, UniProt Q9H422)	cell-free assay, competition with immobilised ligand	100%
Calcium/calmodulin-dependent protein kinase kinase 2 (CAMKK2, Homo sapiens, UniProt Q96RR4)	cell-free assay, competition with immobilised ligand	89%
Phosphatidylinositol 5-phosphate 4-kinase type-2 beta (PIP4K2B, Homo sapiens, UniProt P78356)	cell-free assay, competition with immobilised ligand	62%
Ribosomal protein S6 kinase alpha-3, C-terminal kinase domain (RPS6KA3, Homo sapiens, UniProt P51812)	cell-free assay, competition with immobilised ligand	92%
Serine/threonine-protein kinase VRK2 (VRK2, Homo sapiens, UniProt Q86Y07)	cell-free assay, competition with immobilised ligand	100%
Tyrosine-protein kinase Fer (FER, Homo sapiens, UniProt P16591)	cell-free assay, competition with immobilised ligand	83%
Inhibitor of nuclear factor kappa-B kinase subunit epsilon (IKBKE, Homo sapiens, UniProt Q14164)	cell-free assay, competition with immobilised ligand	70%
Receptor-interacting serine/threonine-protein kinase 4 (RIPK4, Homo sapiens, UniProt P57078)	cell-free assay, competition with immobilised ligand	100%
MAP kinase-activated protein kinase 2 (MAPKAPK2, Homo sapiens, UniProt P49137)	cell-free assay, competition with immobilised ligand	90%
Cyclin-dependent kinase 2 (CDK2, Homo sapiens, UniProt P24941)	cell-free assay, competition with immobilised ligand	82%
Serine/threonine-protein kinase Nek4 (NEK4, Homo sapiens, UniProt P51957)	cell-free assay, competition with immobilised ligand	100%
Epidermal growth factor receptor (EGFR, Homo sapiens, UniProt P00533, L858R/T790M)	cell-free assay, competition with immobilised ligand	88%
Interleukin-1 receptor-associated kinase 3 (IRAK3, Homo sapiens, UniProt Q9Y616)	cell-free assay, competition with immobilised ligand	75%
Receptor-type tyrosine-protein kinase FLT3 (FLT3, Homo sapiens, UniProt P36888)	cell-free assay, competition with immobilised ligand	100%
Ephrin type-A receptor 1 (EPHA1, Homo sapiens, UniProt P21709)	cell-free assay, competition with immobilised ligand	100%
Cyclin-dependent kinase 14 (CDK14, Homo sapiens, UniProt O94921)	cell-free assay, competition with immobilised ligand	63%
Serine/threonine-protein kinase SIK1 (SIK1, Homo sapiens, UniProt P57059)	competition binding	71%

Series 3 — species: human; medium: microsomes or S9; tested at: 2 µM; time: 0.5 h
Compound	remaining compound [%]
CCc1c2c(nc3sc(C(=O)N4CCc5cc(OC)c(OC)cc5C4)c(N)c13)CC(C)(C)CC2=O	33.1
CS(=O)(=O)N[C@@H]1[C@@H](NC(=O)C2=NNC(=O)CC2)[C@H]2CCO[C@H]21	> 100
CC(NC(=O)c1cn(C)nc1-c1ccc2c(c1)OCCCO2)c1ccc(-n2cncn2)cc1 (centres unmarked)	98.5
COC(=O)c1sccc1NC(=O)Nc1c(C)nn(Cc2ccccc2C)c1C	2.19
c1ccc(-c2nnc(CNCCN3CCOCC3)o2)cc1	95.9
O=C(NC1CCN(Cc2ccc(OC3CCNCC3)c(Br)c2)CC1)c1cc2cc(Br)ccc2s1	> 99
CC(=O)c1c(O)c(-c2ccc(Cl)cc2)c[nH]c1=O	67.7
CCC(C)(C)C1CCc2c(sc(NC(=O)CC(C)CC(=O)O)c2C(N)=O)C1 (centres unmarked)	> 99

Series 4 — tested at: 1 µM
Structure (SMILES): COc1ccc2[nH]c3c4[nH]c5ccc(OC)cc5c4c4c(c3c2c1)C(=O)NC4=O
target	test	remaining binding [%]
Rho-associated protein kinase 2 (ROCK2, Homo sapiens, UniProt O75116)	binding	73
Tyrosine-protein kinase ABL1 (ABL1, Homo sapiens, UniProt P00519, F317I)	–	73
Ephrin type-A receptor 1 (EPHA1, Homo sapiens, UniProt P21709)	binding, competition with immobilised ligand	93
Glycogen synthase kinase-3 alpha (GSK3A, Homo sapiens, UniProt P49840)	binding	100
Serine/threonine-protein kinase Sgk2 (SGK2, Homo sapiens, UniProt Q9HBY8)	binding	46
Serine/threonine-protein kinase D3 (PRKD3, Homo sapiens, UniProt O94806)	binding	75
Dual specificity mitogen-activated protein kinase kinase 5 (MAP2K5, Homo sapiens, UniProt Q13163)	binding, competition with immobilised ligand	0.7
Mitogen-activated protein kinase kinase kinase kinase 3 (MAP4K3, Homo sapiens, UniProt Q8IVH8)	binding, competition with immobilised ligand	73
